Results gathered from unrelated publications.
Each line is one published result; not all experiments were run side by side. Values joined by “and” are separate records of one study, mostly repeats; a detail may differ. ± marks the error that the study gave.
Genome polyprotein NS2B-NS3 protease: Genome polyprotein, NS2B-NS3 protease (dengue virus type 2, UniProt P29990)

SMILES	target or system	assay	test system	setting	how to read	measurement	value
CSC(=S)N/N=C(\C)c1ccc(Nc2nnc(-c3ccc(Cl)cc3)c3ccccc23)cc1	MCF7	cell growth or viability, MTT		5 µM		cell death	94.2%
CCCCCCCCCCCC(=O)N[C@@H](CO)C[C@@H](O)c1cccc(CCCCCC)c1	HeLa	HPLC-MS-MS lipidomics, measured: C20 SM and ceramide		1 µM, 24 h	baseline: SM over Cer	SM/Cer ratio	20 ,0
C[n+]1ccc(/C=N/NC(=O)c2cc(C(=O)N/N=C/c3cc[n+](C)cc3)ncn2)cc1	telomeric G4 DNA hybrid-2	FRET melting		1 µM, DNA 0.2 µM		ΔTm	1.2 ± 0.4 °C
COC(=O)c1cc(NC2=NC(=O)C(=Cc3ccc(C)cc3)S2)ccc1OC(C)=O	MCF7	GC-MS, measured: Butanedioic acid		1 µM	baseline: DMSO	metabolite level	0.23 fold change
CC(C)c1ccc(N(C)c2ccc3c(c2)OCC[C@H]3CNc2cnccc2C(=O)O)cc1	SW48	cell growth or viability, ATP luminescence		7 days		IC50	50 nM
[Cl-].[Cl-].[Ru+2].c1cc(-c2ccc3cccnc3n2)nc(-c2ccc3cccnc3n2)c1.c1ccc2cc3nc4c5cccnc5c5ncccc5c4nc3cc2c1	B16-F10	photocytotoxicity, resazurin		visible light 400-700 nm, 20 mW, 100 J/cm2		EC50	7580 nM
Cc1nc(Nc2ncc(C(=O)Nc3c(C)cccc3Cl)s2)cc(N2CCN(C(=O)CN)CC2)n1	KU812	flow cytometry		concentration not given, 3 h		late apoptotic cells	5.94% and 5.41% and 6.29%
NC(=O)c1ccc(-c2ccccc2Cl)c2c3c([nH]c12)CC[C@H](N)C3	MX1	cell growth or viability				IC50	17.1 nM
C=CC(=O)Nc1cccc(Cn2ncc3cnc(Nc4cnn(CCOC)c4)nc32)c1	human FAK	KINOMEscan		100 nM	baseline: control	binding	100%
Cc1ncsc1-c1ccc(C(C)NC(=O)C2CC(O)CN2C(=O)C(NC(=O)CCCCCCCCCCN2CCCC(Nc3ncc(Cl)c(Nc4ccccc4S(=O)(=O)C(C)C)n3)C2)C(C)(C)C)cc1 (centres unmarked)	22Rv1	RNA-seq, measured: SEC22A mRNA		concentration not given	baseline: DMSO	log2 fold change	-1.01
O=C1c2ccc3c4ccc5c6c(ccc(c7ccc(c2c37)C(=O)N1CCN1CCCCC1)c64)C(=O)N(CCN1CCCCC1)C5=O	hTERT promoter G-quadruplex DNA	binding, thiazole orange displacement		pH 8		DC50	1480 ± 310 nM
N=C(N)NCc1cccc(CNC(=O)c2cc(-c3ccccc3)n(-c3ccccc3)n2)c1	Genome polyprotein NS2B-NS3 protease	reporter gene	HeLa			EC50	30000 nM
CCOc1cncc(-c2ccc(NC(=O)C3(c4ccnc(NS(=O)(=O)C5CC5)n4)CCOCC3)nc2)n1	MX1	cell growth or viability, ATP luminescence		72 h		IC50	4570 nM
CN(C)CCN1CCN(c2ccc3nc(-c4ccc5nc(-c6ccc(C(F)(F)F)cc6)[nH]c5c4)[nH]c3c2)CC1	OVCAR-4	SRB		10 µM, 48 h		growth percent	-4.77%
COc1ccccc1-c1ccncc1C(=O)Nc1nnc(OCc2ccc(Cl)cc2)s1	MDA-MB-436 BRCA1-mutant			12 µM, mean of 3 replicates	baseline: untreated	colony survival	44.5%
O=C(O)C(Cc1c[nH]cn1)N1C(=O)c2ccc3c4ccc5c6c(ccc(c7ccc(c2c37)C1=O)c64)C(=O)N(C(Cc1c[nH]cn1)C(=O)O)C5=O (centres unmarked)	hTERT promoter G-quadruplex DNA	binding, thiazole orange displacement		pH 8		DC50	> 2500 nM
O=C(c1cc(-c2ccccc2)n(-c2ccccc2)n1)N1CCc2nc[nH]c2C1	Genome polyprotein NS2B-NS3 protease	reporter gene	HeLa			EC50	16000 nM
O=C(N1CCCC1)n1cc(-c2ccc(-c3ccccc3)cc2)nn1	mouse T cells	N-terminal labelling proteomics, measured: SKP1A N-terminal peptides		0.001 µM, 6 h	baseline: DMSO	SILAC ratio	1.18

SMILES	target or system	assay	test system	setting	how to read	measurement	value
Cn1ncc2cc(-c3cncc(Cl)c3N3CCC4(CCNC4=O)CC3)ccc21	LS174T	gene expression, microarray, measured: TTN mRNA		concentration not given, 4 h	baseline: untreated cells	log2 fold change	-3.92
O=C(Nc1cnccc1-c1ccc([18F])nc1)c1ccnc(NC(=O)C2CC2)c1			FVB/NJ mice, both sexes, liver	intravenous, 20 min, median, P-gp inhibitor pretreatment, with: tariquidar 15 mg/kg iv		SUV	8.86
CC(C)(C)c1cc(-c2ccc3cccnc3n2)nc(-c2ccc3cccnc3n2)c1.COc1ccncc1.[Cl-].[Cl-].[Ru+2].c1ccc2cc3nc4c5cccnc5c5ncccc5c4nc3cc2c1	B16-F10	resazurin		with: light 523 nm, 100 J/cm2	baseline: dark EC50 over light EC50	phototoxicity index	63
O=C(C[Se]C(=O)c1cc2ccccc2o1)Nc1cccc(C(F)(F)F)c1	NCI60 breast subpanel	cell growth		10 µM, 48 h, one-dose		mean growth percent	-70.7%
[BH3-][P+]1(c2ccccc2)CCCCC1	SW-620	Annexin V-FITC/PI flow cytometry		IC50, 72 h		late apoptotic cells	2.45%
C=CC(=O)N1CCCC(n2c(=O)c3ncccc3n(Cc3ccc(Oc4ccccc4)cc3)c2=O)C1 (centres unmarked)	MAC-1	cell proliferation, MTT		72 h		IC50	150 nM
CNS(=O)(=O)Nc1nccc(Cc2c(C)c3ccc(Oc4ncccc4F)cc3oc2=O)c1F	NOMO-1	cell viability		7 days		IC50	> 1000 nM
COC1CN([C@H]2CC[C@H]([C@@]3(C)Oc4c(Cl)cc(C(=O)NCc5c(SC)cc(C)[nH]c5=O)c(C)c4O3)CC2)C1		RNA-seq, measured: MICU1	human, whole blood	dose not given, 24 h	baseline: pretreatment baseline	log2 fold change	1.06
CC1(C)CC[C@@]2(CO)C(=C3C=C[C@@H]4[C@@]5(C)CC[C@H](O)[C@@](C)(CO)[C@@H]5CC[C@@]4(C)[C@]3(C)C[C@@H]2O)C1	HepG2, SIRT1 siRNA	flow cytometry		concentration not given, high dose, with: ethanol	baseline: control cells	relative ROS fluorescence	1.89 and 2.16 and 1.54
COc1cc(C(=O)N2CC[C@@H](O)[C@@H](N)C2)cc2nc(-c3cc4cccnc4n3CC3CC3)n(C)c12	human neutrophils	protein citrullination, inhibitor, flow cytometry, measured: citrullinated histone H3		10 µM, with: ionomycin		inhibition	84.8% and 86.7% and 75.5% and 87.7%
Cn1ncc(-c2ccc3c(=O)[nH]nc(CN)c3c2)c1-c1c(F)c(Cl)cc(OC2CC2)c1C#N	NCI-H2170	cell viability, inhibitor, CellTiter-Glo		120 h, baseline-subtracted		IC50	60 nM
C=CC(=O)N1CC2C(=O)N(CCN(C)C)c3c(c4cc(Cl)c(-c5c(O)cccc5F)nc4n(-c4c(C)ccnc4C(C)C)c3=O)N2CC1C (centres unmarked)	NCI-H358	Western blot		1 nM, 4 h		p-AKT/AKT ratio	decreased
O=C(C[Se]C(=O)C12CC3CC(CC(C3)C1)C2)Nc1cccc(C(F)(F)F)c1	NCI60 breast subpanel	cell growth		10 µM, 48 h, one-dose		mean growth percent	-40.1%
CCN(CC)CC(=O)Nc1cccc(-n2cc(-c3ccc4ccc(-c5cn(-c6cccc(NC(=O)CN(CC)CC)c6)nn5)cc4c3)nn2)c1	RCC4	PCR angiogenesis array, measured: EFNB2		5 x IC50, 6 h, normoxia	baseline: untreated	fold regulation	-2.08
CC[n+]1cccc2cc(/C=N/NC(=O)N/N=C/c3ccc4c(ccc[n+]4CC)c3)ccc21	telomeric G4 DNA hybrid-2	FRET melting		1 µM, DNA 0.2 µM, with: duplex DNA competitor 10 µM		ΔTm	4.6 ± 0.3 °C
CC(C)(C)c1cc(-c2ccc3cc4ccccc4nc3n2)nc(-c2ccc3cc4ccccc4nc3n2)c1.Cc1ccncc1.[Cl-].[Cl-].[Ru+2].c1ccc2cc3nc4c5cccnc5c5ncccc5c4nc3cc2c1	B16-F10	resazurin		with: light 733 nm, 100 J/cm2	baseline: dark EC50 over light EC50	phototoxicity index	4
CN1CCCNC(=O)c2cccc(c2)C(=O)NCCCN(C)CCCNc2cccc3c2C(=O)c2cccc(c2C3=O)NCCC1	SAS	RNA-Seq, measured: SCAF8 mRNA		1 µM, 6 h	baseline: untreated cells	log2 fold change	-1.28

Some of these lines once more:
SMILES	target or system	assay	test system	setting	how to read	measurement	value
COc1cc(C(=O)N2CC[C@@H](O)[C@@H](N)C2)cc2nc(-c3cc4cccnc4n3CC3CC3)n(C)c12	human neutrophils	protein citrullination, inhibitor, flow cytometry, measured: citrullinated histone H3		10 µM, with: ionomycin		inhibition	84.8% and 86.7% and 75.5% and 87.7%
Cn1ncc(-c2ccc3c(=O)[nH]nc(CN)c3c2)c1-c1c(F)c(Cl)cc(OC2CC2)c1C#N	NCI-H2170	cell viability, inhibitor, CellTiter-Glo		120 h, baseline-subtracted		IC50	60 nM
C=CC(=O)N1CC2C(=O)N(CCN(C)C)c3c(c4cc(Cl)c(-c5c(O)cccc5F)nc4n(-c4c(C)ccnc4C(C)C)c3=O)N2CC1C (centres unmarked)	NCI-H358	Western blot		1 nM, 4 h		p-AKT/AKT ratio	decreased
O=C(C[Se]C(=O)C12CC3CC(CC(C3)C1)C2)Nc1cccc(C(F)(F)F)c1	NCI60 breast subpanel	cell growth		10 µM, 48 h, one-dose		mean growth percent	-40.1%
